Experimental data gathered from unrelated publications.
Lines come from different studies, so protocols differ. “And” joins repeats or separate records; there may be more than shown.
CDK4 with cyclin D1: Cyclin-dependent kinase 4, with cyclin D1 (CDK4, Homo sapiens, UniProt P11802)
CDK4 with cyclin D: Cyclin-dependent kinase 4, with cyclin D (CDK4, Homo sapiens, UniProt P11802)
CDK4 with cyclin D3: Cyclin-dependent kinase 4, with cyclin D3 (CDK4, Homo sapiens, UniProt P11802)
CDK4: Cyclin-dependent kinase 4 (CDK4, Homo sapiens, UniProt P11802)

NC(=O)[C@@H](O)C[C@H]1CCc2sc3ncnc(O[C@H]4CC[C@H](N5CCOCC5)CC4)c3c21  inhibition (CDK4 with cyclin D1; enzyme activity, inhibitor; 10 µM): 10%
C=CC(=O)Nc1cccc(-c2cnc3[nH]cc(C(=O)NC(C)(C)C)c3n2)c1  inhibition (CDK4 with cyclin D; enzyme activity, inhibitor; 0.1 µM): 1%
Cc1cccc(O[C@H]2CCC[C@@H](C(C)CNCc3ccncc3)C2)c1 (relative stereo)  inhibition (CDK4 with cyclin D; kinome profiling; 10 µM): 0%
O=C(Cc1ccc(OCc2ccccc2)cc1)NC1(C(=O)O)CCN(C(=O)c2ccc(-c3cccc(Cl)c3)cc2)CC1  activity vs control (CDK4 with cyclin D3; enzyme activity, inhibitor; 10 µM): 94%
NC(=O)C[C@H]1CCc2sc3ncnc(O[C@H]4CC[C@H](N5CCOCC5)CC4)c3c21  inhibition (CDK4 with cyclin D3; enzyme activity, inhibitor; 10 µM): 6%
CCn1cc(C(=O)O)c(=O)c2c(N)c(F)c(NC3CCCCC3)cc21  inhibition (CDK4 with cyclin D1; kinase activity; 0.1 µM, with: ATP at Km): 12.2%
C=CC(=O)N1Cc2nc(-c3cc(-c4cc(Cl)cnc4Cl)c(F)cc3F)n(-c3ccncn3)c2C1  inhibition (CDK4 with cyclin D3; cell-free assay, inhibitor; 1 µM): 2%
Nc1ncc(-c2cc(-c3cnn(CC(F)(F)F)c3)ncc2F)nc1C(=O)NC1CNCC(F)C1 (stereo not shown)  remaining activity (CDK4 with cyclin D3; enzyme activity; 1 µM; relative to: DMSO control): 112%
CN1C[C@@H](c2c[nH]c3cc(Br)ccc23)NC[C@@H]1c1c[nH]c2cc(Br)ccc12  remaining activity (Cyclin-dependent kinase 4, with cyclin D2 (CDK4, Homo sapiens, UniProt P11802); enzyme activity, inhibitor; 10 µM): 95%
COc1ccc(C(=O)/C=C/c2ccccc2-c2c[nH]c3ccc(C#N)cc23)c(O)c1  inhibition (CDK4 with cyclin D3; enzyme activity, inhibitor; 20 µM): -1%
C=CC(=O)Nc1cc(-c2nn(C3CCN(CCNC(=O)[C@H](C)CCC45CC6CC(CC(C6)C4)C5)CC3)c3ncnc(N)c23)ccc1Oc1ccccc1  inhibition (CDK4; inhibitor, KiNativ profiling; biochemical; 2 µM): 17.4%
CS(=O)(=O)Nc1cccc(-c2csc3cnc(Nc4ccc(N5CCN(CCCCCOc6cccc7c6C(=O)N(C6CCC(=O)NC6=O)C7=O)CC5)cc4)nc23)c1 (stereo not shown)  inhibition (CDK4; probe labelling, inhibitor, KiNativ chemoproteomics; MOLT-4; 1 µM): 67.1%
COCC12C(=O)NC3C4(C(OC)CC1O)C1CC5(O)C(OC)C(O)C(OC(C)=O)(C1C5OC(=O)c1ccccc1)C3(O)C(OC)C24 (stereo not shown)  remaining activity (CDK4 with cyclin D1; kinase activity, inhibitor, ProQinase kinase profiling; 25 µM; relative to: control): 94% and 98%

Repeated from above:
NC(=O)[C@@H](O)C[C@H]1CCc2sc3ncnc(O[C@H]4CC[C@H](N5CCOCC5)CC4)c3c21  inhibition (CDK4 with cyclin D1; enzyme activity, inhibitor; 10 µM): 10%
